Published values collected from several papers.
Parts stem from different laboratories: compare values within a part only. Positions count from the first letter of the parent shown.

Block 1
Target: Interferon regulatory factor 7, full length, phosphomimetic (IRF7, Homo sapiens, UniProt Q92985, residues 1-503, S471D/S472D/S475D/S476D/S477D/S483D/S484D/S487D)
Method: protein-binding microarray
Form: double-stranded DNA, one strand shown
Medium: in vitro
Concentration: 2200 nM top
Setting: 60-bp whole probe
Together with: salmon DNA 0.4 mg/ml
Relative to: random background probes
Direction: higher = stronger binding
Shared flanks, not repeated: GCCTAGCAC … GTCTTGATTCGCTTGACGCTGCTG
Target sequence (chain): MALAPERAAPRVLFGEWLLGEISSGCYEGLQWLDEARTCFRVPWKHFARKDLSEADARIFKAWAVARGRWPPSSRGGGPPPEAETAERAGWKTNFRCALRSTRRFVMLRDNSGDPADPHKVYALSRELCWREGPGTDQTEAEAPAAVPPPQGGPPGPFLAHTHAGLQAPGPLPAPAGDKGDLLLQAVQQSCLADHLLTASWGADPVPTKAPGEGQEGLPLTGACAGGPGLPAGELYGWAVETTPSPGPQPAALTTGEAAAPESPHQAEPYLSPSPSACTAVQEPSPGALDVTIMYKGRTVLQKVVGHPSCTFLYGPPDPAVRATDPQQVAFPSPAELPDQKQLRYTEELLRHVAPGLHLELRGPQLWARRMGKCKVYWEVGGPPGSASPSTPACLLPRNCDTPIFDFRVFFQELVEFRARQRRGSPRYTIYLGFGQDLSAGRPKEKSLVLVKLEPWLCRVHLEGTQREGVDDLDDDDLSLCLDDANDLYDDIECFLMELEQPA
Strand	fitted relative affinity
TTAGAACTTAGTTTCGATTAGTGCTAG	6.05 z-score
GAGGATATCGGGTTTCGAGACGTGCTA	1.36 z-score
TTAGGTTTCGGGTTTCGCTTAGTGCTA	9.45 z-score
GACGGTAACGGGACTGGGGACGTGCTA	-0.987 z-score
TCAGTTTTGAGCTCTGTCTGGGTGCTA	1.36 z-score
GACGGTTCCCTTTACCTGACGTGCTAG	1.74 z-score
TTAGATATCAGTATCGATTAGTGCTAG	0.287 z-score
ACTTCTCCATTTTTCTAGTCGTGCTAG	3.02 z-score
CTTTAACTCATTTTCGTTTTGTGCTAG	11.5 z-score
TCACTGCTACCCTTTGAAACTGTGCTA	0.757 z-score
GACGATATCGGGTTTCGAGACGTGCTA	1.51 z-score
GACGGAGTGGGGACTGGGGACGTGCTA	-0.64 z-score
TTAGAACTGTGGTATCGATTAGTGCTA	-0.203 z-score
GTAGGACTGGGTTTCGGTTAGTGCTAG	3.61 z-score
TTAGATTTCGGATTTCGATTAGTGCTA	4.32 z-score
TTAGGTTTCGAGACTGGGTTAGTGCTA	2.83 z-score
TTAGTACTGAGTCTCGATTAGTGCTAG	0.293 z-score
GGCGGTTCCGGTTTCGGGACGTGCTAG	4.95 z-score
GACGGTCTCGGTTTCGCGACGTGCTAG	2.27 z-score
TTAGGGTTCGGGACTGGGTTAGTGCTA	-0.25 z-score
TTAGGTTGCGGTTCCGGTTAGTGCTAG	2.04 z-score
GACGATTTAAGTTCCGAGACGTGCTAG	0.46 z-score
CCCTTACCGCATATCGGGGTGTGCTAG	-0.107 z-score
GCCGGTATCGACTTTCGGGACGTGCTA	3.23 z-score

Block 2
Target: Phosphate system positive regulatory protein PHO4, full length, GST-tagged (PHO4, Saccharomyces cerevisiae, UniProt P07270, residues 1-312)
Method: competition protein-binding microarray
Form: double-stranded DNA, one strand shown
Medium: in vitro
Concentration: 2 µM
Setting: whole 60-bp probe, lowest competitor level
Together with: Cbf1 competitor, 0.05 µM
Direction: higher = stronger binding
Shared flanks, not repeated: … GTCTTGATTCGCTTGACGCTGCTG
Residues (chain): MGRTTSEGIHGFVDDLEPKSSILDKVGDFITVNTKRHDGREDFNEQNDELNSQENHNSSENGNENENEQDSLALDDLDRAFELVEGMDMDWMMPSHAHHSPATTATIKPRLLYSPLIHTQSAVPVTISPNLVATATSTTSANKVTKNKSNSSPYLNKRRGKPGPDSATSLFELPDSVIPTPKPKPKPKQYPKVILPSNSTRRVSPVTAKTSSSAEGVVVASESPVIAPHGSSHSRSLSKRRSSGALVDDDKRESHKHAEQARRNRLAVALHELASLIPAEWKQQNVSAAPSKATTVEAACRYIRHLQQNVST
Strand	fluorescence intensity
GCCAGGGTGCGCTGGCACGCAGGGTAAGAGCCGCAA	6740 a.u.
TTTGACTGCGTCGCGGGCGTGCTGTACGACCTCGAC	6770 a.u.
ATCATTTTCAATGAAGCTGTGACGGTGGCATTCGCA	4290 a.u.
CGGCCCTTCTCACCCCCCGTGTTTCGCAAAGAACAA	8980 a.u.
AAATTACTAAGTTCCCACGTGTTTTACCCCGTATGA	16200 a.u.
CGTAGGGCTGATATCCACCTGATCGACAATGTCCAA	3460 a.u.
TGCGCAACAACTTGGGATGTGGGTGTATGTCTAGAA	5210 a.u.
CTTCTGTAAATTTTTCACGTGTACTGACGCGCCCCG	11500 a.u.
CTAACGAAGGTTTTTCACGTGTTATACAAGCCAAGT	15000 a.u.
TAATGAACTTTGTCCCACGTGCGGACATCATTTACT	19600 a.u.
CCCTAAAGTTTGGTGCACGTGGTTTTCTCTCGCTCT	16600 a.u.
TGCGCAACAACTTGCTGAGTGGGTGTATGTCTAGAA	4740 a.u.
TCTGGATCAGAAGATTACGTGTCCTGAGAAGATTAT	4880 a.u.
CATACCCAACCTTGTCACCCCACTTAAGATATTTGT	4320 a.u.
GTCTTGTCTCATTGTCACACGACTTTCCCCACTTCA	6000 a.u.
GCCTAAGGGCCTGCCATCGTGCTTTCTCAAACTATT	10200 a.u.

Block 3
Target: RING finger protein unkempt homolog, zinc fingers 1-6, GST-SBP tag (UNK, Homo sapiens, UniProt Q9C0B0, residues 30-357)
UniProt Q9C0B0, sequence (30-357, looked up): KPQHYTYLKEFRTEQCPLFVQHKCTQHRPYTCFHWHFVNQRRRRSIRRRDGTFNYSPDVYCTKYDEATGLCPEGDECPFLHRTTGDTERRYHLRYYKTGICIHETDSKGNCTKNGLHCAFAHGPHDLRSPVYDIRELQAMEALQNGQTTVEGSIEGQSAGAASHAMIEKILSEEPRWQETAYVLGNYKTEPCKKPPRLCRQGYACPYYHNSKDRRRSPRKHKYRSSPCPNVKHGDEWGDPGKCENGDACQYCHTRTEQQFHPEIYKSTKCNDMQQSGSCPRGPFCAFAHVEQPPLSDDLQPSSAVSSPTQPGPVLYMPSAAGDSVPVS
Method: RNA Bind-n-Seq
Form: RNA
Medium: in vitro
Concentration: not given
Setting: RNA with constant flanks, human-mouse chimeric sites, ends assumed
Relative to: input RNA pool
Direction: higher = stronger binding
Shared flanks, not repeated: GGGAGUUCUACAGUCCGACGAUC … CAACAGAGGAUUGAGCAUCA
Strand	bound/input enrichment [ratio]
UGACAAGGGCACUGCAGGGCCAUGCCUUUCCUUGACAUACAGAAAAAGCUGGGCAUCAGCCUGGACCGGCACUUUAUGUUCCUAAGCGCAGAACAGCCCUAUAAGAAGGCUGGUCGAUGC	0.0905
GAAACAUUUAAAUUUAAAGAAGCUGUUGUUCUAGGAAGUACGGACUUUCUAGAAGAUGAUAUAGAGAAAAUUGUAGAAGAACUGGGGAAAGAGUAUAAAGGCAAUGCUUAUCAUUUAAUG	1.94
CGCUUGGAUGAGGCGGGUGUCACAGAUGAAGUGCUAGAUUCUGCCAUGCAAGCCUUCCUUCUGGAGGUCAUUGUUAAGCAUGGGGAGCCGGCACCUUAUUUAUGUAACAAAGAUCCGUUU	0.101
AAUUUCCUGUCAUACUUUGUAGCAAGACACAUCAGACUUACAGAGCAUUGGGCCUCUUUCUAGGUUUGUGUUAUUUCUCAGCUAUGGAUAUGAUCAAAUGAGAACACUGCUUAACUAAUG	0.182
UGUGCAUUAUGAUGCUUAGAUGGUUUUUGCAAAAGCAGAAAUCGCUGCAAGGUAAUCACAAUAGAUACAAGCGGUAUUUUAAACCUUUGAAAUAAAUGGAUGUAACUGUACCUUGGUACA	0.299
UAAGUCCUGUGCCAGCACUUCGCUCAUAAAGUUUUAAAUUCUGGACCAAUAGUGUUUAUCUUUAGAAUAUUGUAUCCAAUACUUUGCCUAGUAUGUAACUCACUCUUACUGAUAAUAAAA	10.1
AAAGAGAAACUAAAGCAACUAAUAGAGAAGAGGAUUGGCAAAGAGAAUUUCAUAGAGAAACUAGGAUUUAUUAGCAAACAUGAGUUAGUAUUCCAGAGCAUCUCAGAACCCCAGCCAAAC	2.78
UGUGCAUUAUGAUGCUUAGAUGGUUUUUGCAGAUGCAGAAAUCGCUGCAAGGUAAUCACAAUAGAUAAAAGUGGUAUUUUAAACCUUUGAAAUAAAUGGAUGUAACUGUACCUUGGUACA	0.671
GGAAUUGCAAACUGAUUUAAGUUUGAGUAUCACAAUGUUAGCUUUCUAAUUCCAUAAAAGUACUUGGUUUUUACAGUUUAUAAUCUGACAUCACCCCAGCGCCAUUUGUAAAGAGCAACU	0.576

Block 4
Target: CRIPT, C-terminal peptide
Method: DHFR complementation, deep sequencing
Medium: yeast
Setting: single substitutions, model-inferred values
Relative to: wild type
Direction: higher = weaker binding
Starting sequence: ERBIN, PDZ domain 1 (human); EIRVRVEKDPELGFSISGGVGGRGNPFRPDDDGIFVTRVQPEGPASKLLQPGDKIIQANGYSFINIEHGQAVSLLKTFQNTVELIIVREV; partner TKNYKQTSV
Change	binding free energy change [kcal/mol]
I86F	0.0671
G60D	0.0664
E11H	-0.293
G69K	0.284
I2V	-0.056
V72C	0.842
Q79S	0.037
I85H	-0.0436
T37V	0.0546
N80F	0.149
D9A	-0.149
I56V	-0.0264
A58V	0.21
I66E	0.643
E42F	0.146
G21Q	0.225
G43A	0.567
I66D	1.8
F14P	0.713
I34Y	1.41
I85C	-0.105
I2M	-0.024
Q79N	0.0951
N25G	0.935
L12Q	1.24

Block 5
Target: CCNB2, cyclin fold, Cln2 fusion (human)
Method: yeast growth competition, sequencing
Medium: yeast
Setting: strong parent motif
Relative to: not given
Direction: higher = stronger binding
Starting sequence: BRCA2 docking peptide (human); PSIKRNLLNEFDR; partner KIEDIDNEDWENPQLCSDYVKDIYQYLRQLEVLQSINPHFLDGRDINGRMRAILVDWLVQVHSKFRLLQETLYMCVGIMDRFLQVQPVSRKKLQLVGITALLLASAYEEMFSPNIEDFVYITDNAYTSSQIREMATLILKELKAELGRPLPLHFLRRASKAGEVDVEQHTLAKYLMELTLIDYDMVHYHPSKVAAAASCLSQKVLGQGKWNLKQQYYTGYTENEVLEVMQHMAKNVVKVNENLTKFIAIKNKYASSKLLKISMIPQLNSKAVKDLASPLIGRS
Change	normalised enrichment score
N9G	3.59
F11T	0.0125
L8S	1.75
I3W	0.953
N9C	3.2
R5A	1.24
L8K	1.55
E10L	0.517
D12H	1.88
N9S	3.99
R13N	4
E10N	0.614
F11Y	1.3
R13K	3.57
E10K	0.175
D12W	1.22
I3F	0.82
P1K	3.6
R13A	4.54
S2F	2
